Assay results of several laboratories.
Every numbered part comes from another study and shows a few of its results, in no order. Substitutions count along the parent as printed.

Block 1 — method: DHFR PCA, deep sequencing; matrix: yeast; with: (+)-ABA 1.4 µM; reference: wild-type fitted maximum; direction: higher = stronger binding
Target: ABI1, truncated, D143A, DHFR fusion (Arabidopsis thaliana)
Setting: methotrexate growth selection, single substitutions
Parent: PYL1, truncated, DHFR fusion (Arabidopsis thaliana); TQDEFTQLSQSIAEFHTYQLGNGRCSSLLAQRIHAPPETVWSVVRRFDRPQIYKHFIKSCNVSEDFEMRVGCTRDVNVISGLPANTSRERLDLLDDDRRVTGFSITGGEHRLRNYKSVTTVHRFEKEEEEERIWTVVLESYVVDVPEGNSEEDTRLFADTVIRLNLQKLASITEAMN
Substitution | relative binding score [%]
E125W | 41.8
N114R | 8.15
E128G | 83.8
L138M | 32.5
T160D | 7.78
D144H | -7.45
N177E | 65.3

Block 2 — target: human cyclin B2; read-out: peptide binding; method: yeast competitive growth sequencing; molecule type: peptide; organism: Saccharomyces cerevisiae; strain: cyclin B2-Cln2 fusion; concentration: concentration not given; setting: peptide tiling library; direction: direction not given
Molecule | binding enrichment score
PFSENVSAVQKLDFSD | 0.361
NEGVSNAVRRSLYIRD | 0.188
TLPYDLACTGGDFVLF | -0.184
GTPKRCLDLSNLSSGE | -0.0436
GFGFLLFICKLTF | -0.0308
ATNSSHTDAHEILVSD | 0.38
YLYLLLTQSLWCRV | 0.261

Block 3 — method: universal PBM; molecule type: double-stranded DNA, one strand shown; matrix: in vitro; concentration: 600 nM; direction: higher = stronger binding
Target: Sal-like protein 4, full length isoform A (SALL4, Homo sapiens, UniProt Q9UJQ4, residues 1-1053)
Sequence of UniProt Q9UJQ4 (whole entry, looked up): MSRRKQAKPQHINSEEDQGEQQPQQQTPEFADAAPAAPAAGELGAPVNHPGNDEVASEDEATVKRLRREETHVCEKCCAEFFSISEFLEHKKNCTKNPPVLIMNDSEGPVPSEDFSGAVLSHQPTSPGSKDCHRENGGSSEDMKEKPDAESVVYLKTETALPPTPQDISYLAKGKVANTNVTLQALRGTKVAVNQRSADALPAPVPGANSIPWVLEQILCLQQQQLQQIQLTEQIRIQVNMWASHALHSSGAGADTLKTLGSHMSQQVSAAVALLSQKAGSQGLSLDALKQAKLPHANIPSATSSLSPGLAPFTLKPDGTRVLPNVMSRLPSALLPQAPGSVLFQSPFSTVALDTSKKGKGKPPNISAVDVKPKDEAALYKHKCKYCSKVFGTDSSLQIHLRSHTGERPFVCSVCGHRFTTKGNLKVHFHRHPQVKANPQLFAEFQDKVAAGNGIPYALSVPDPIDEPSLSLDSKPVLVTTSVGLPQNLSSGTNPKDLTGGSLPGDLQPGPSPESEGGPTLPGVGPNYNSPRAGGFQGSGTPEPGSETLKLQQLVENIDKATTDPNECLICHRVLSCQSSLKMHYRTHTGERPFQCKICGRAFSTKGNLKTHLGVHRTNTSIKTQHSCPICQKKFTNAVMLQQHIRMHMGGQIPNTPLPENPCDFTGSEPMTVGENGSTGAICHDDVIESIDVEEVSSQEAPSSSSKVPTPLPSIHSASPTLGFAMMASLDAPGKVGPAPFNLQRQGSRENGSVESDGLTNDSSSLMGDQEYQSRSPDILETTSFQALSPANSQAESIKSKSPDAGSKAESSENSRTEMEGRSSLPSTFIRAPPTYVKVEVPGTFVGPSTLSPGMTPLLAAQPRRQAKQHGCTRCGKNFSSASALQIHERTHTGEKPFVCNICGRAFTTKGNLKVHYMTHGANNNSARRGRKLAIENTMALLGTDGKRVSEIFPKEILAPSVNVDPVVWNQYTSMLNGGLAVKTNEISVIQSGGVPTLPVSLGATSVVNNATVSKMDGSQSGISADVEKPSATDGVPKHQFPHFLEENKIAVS
Setting: 8-mer, flanks averaged, mean of replicates
Strand | E-score
AGCGTACA | 0.007
AACGTGCA | 0.0219
ATACACGG | 0.19
ACCGTGTC | -0.195
GTAAATAA | 0.35
CATCAGGA | 0.048
CGCGCAGA | -0.141

Single results of other studies
Substance | target | assay | test system | conditions | scale | endpoint | result
PhoQ, residues 284 288 289 292 302 303 TNASYF | PhoP, residues 12 14 15 18 19 NNFVT (Escherichia coli, UniProt P23836) | Sort-seq, measured: YFP reporter | E. coli | PhoQ-PhoP variant library, with: 10 µM Mg2+ | reference: high Mg2+ state, higher = stronger signaling | fold induction | 4.92

A few entries again (block 3):
Strand | E-score
AACGTGCA | 0.0219
CGCGCAGA | -0.141
